Measurements of several laboratories.
Numbered parts are unrelated; each lists some results of a single study.
Sequence of UniProt O00444 (whole entry, looked up): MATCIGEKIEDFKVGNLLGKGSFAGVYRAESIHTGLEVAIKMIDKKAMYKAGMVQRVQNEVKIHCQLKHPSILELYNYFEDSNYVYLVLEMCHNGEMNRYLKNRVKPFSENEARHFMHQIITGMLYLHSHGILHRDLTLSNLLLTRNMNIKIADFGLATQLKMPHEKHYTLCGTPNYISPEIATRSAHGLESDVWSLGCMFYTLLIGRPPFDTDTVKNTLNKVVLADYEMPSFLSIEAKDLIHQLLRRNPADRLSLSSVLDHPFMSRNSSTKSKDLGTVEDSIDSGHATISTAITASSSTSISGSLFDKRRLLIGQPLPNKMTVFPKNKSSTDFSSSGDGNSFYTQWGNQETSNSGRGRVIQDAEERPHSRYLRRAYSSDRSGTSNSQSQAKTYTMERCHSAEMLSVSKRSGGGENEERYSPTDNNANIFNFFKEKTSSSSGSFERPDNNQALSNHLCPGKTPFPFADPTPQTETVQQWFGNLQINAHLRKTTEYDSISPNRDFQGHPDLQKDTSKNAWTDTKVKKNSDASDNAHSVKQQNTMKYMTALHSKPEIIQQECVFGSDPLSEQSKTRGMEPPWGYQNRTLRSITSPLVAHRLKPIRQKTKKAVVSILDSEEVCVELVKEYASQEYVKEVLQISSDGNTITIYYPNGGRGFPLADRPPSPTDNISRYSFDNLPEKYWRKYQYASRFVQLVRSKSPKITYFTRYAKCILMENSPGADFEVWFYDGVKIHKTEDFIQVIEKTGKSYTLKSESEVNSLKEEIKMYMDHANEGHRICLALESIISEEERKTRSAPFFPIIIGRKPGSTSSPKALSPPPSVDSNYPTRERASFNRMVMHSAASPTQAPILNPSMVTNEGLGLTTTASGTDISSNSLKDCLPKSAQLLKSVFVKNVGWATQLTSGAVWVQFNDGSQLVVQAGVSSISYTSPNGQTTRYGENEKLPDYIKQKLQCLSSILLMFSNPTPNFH
Sequence of UniProt Q32MK0 (whole entry, looked up): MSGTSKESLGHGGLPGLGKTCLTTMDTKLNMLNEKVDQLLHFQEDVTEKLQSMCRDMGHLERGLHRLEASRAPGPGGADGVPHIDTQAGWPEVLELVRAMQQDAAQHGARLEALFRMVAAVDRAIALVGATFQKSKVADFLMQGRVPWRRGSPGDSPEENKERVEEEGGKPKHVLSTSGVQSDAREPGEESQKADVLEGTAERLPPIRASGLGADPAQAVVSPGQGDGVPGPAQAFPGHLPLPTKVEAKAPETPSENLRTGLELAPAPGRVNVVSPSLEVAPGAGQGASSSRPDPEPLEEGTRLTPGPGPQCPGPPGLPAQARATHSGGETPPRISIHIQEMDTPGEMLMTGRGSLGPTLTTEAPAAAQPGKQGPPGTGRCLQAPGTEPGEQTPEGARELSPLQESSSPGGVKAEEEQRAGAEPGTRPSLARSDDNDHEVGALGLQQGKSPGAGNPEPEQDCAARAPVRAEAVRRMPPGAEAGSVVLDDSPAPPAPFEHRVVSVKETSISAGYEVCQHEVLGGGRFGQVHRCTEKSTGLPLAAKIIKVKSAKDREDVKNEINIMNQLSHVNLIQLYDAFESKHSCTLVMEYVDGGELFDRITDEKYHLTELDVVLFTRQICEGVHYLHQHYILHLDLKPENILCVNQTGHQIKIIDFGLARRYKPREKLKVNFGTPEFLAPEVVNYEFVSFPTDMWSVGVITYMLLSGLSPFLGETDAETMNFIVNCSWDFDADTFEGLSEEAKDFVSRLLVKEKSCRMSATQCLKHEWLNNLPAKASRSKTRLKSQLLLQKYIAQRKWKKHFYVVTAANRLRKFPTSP

Sample 1 — effect on: enzyme activity; action: inhibitor; tested at: 77 µM; reference: untreated; quantity: remaining activity
Target: DNA polymerase theta, ATPase domain (POLQ, Homo sapiens, UniProt O75417)
Sequence of UniProt O75417 (whole entry, unmodified, looked up): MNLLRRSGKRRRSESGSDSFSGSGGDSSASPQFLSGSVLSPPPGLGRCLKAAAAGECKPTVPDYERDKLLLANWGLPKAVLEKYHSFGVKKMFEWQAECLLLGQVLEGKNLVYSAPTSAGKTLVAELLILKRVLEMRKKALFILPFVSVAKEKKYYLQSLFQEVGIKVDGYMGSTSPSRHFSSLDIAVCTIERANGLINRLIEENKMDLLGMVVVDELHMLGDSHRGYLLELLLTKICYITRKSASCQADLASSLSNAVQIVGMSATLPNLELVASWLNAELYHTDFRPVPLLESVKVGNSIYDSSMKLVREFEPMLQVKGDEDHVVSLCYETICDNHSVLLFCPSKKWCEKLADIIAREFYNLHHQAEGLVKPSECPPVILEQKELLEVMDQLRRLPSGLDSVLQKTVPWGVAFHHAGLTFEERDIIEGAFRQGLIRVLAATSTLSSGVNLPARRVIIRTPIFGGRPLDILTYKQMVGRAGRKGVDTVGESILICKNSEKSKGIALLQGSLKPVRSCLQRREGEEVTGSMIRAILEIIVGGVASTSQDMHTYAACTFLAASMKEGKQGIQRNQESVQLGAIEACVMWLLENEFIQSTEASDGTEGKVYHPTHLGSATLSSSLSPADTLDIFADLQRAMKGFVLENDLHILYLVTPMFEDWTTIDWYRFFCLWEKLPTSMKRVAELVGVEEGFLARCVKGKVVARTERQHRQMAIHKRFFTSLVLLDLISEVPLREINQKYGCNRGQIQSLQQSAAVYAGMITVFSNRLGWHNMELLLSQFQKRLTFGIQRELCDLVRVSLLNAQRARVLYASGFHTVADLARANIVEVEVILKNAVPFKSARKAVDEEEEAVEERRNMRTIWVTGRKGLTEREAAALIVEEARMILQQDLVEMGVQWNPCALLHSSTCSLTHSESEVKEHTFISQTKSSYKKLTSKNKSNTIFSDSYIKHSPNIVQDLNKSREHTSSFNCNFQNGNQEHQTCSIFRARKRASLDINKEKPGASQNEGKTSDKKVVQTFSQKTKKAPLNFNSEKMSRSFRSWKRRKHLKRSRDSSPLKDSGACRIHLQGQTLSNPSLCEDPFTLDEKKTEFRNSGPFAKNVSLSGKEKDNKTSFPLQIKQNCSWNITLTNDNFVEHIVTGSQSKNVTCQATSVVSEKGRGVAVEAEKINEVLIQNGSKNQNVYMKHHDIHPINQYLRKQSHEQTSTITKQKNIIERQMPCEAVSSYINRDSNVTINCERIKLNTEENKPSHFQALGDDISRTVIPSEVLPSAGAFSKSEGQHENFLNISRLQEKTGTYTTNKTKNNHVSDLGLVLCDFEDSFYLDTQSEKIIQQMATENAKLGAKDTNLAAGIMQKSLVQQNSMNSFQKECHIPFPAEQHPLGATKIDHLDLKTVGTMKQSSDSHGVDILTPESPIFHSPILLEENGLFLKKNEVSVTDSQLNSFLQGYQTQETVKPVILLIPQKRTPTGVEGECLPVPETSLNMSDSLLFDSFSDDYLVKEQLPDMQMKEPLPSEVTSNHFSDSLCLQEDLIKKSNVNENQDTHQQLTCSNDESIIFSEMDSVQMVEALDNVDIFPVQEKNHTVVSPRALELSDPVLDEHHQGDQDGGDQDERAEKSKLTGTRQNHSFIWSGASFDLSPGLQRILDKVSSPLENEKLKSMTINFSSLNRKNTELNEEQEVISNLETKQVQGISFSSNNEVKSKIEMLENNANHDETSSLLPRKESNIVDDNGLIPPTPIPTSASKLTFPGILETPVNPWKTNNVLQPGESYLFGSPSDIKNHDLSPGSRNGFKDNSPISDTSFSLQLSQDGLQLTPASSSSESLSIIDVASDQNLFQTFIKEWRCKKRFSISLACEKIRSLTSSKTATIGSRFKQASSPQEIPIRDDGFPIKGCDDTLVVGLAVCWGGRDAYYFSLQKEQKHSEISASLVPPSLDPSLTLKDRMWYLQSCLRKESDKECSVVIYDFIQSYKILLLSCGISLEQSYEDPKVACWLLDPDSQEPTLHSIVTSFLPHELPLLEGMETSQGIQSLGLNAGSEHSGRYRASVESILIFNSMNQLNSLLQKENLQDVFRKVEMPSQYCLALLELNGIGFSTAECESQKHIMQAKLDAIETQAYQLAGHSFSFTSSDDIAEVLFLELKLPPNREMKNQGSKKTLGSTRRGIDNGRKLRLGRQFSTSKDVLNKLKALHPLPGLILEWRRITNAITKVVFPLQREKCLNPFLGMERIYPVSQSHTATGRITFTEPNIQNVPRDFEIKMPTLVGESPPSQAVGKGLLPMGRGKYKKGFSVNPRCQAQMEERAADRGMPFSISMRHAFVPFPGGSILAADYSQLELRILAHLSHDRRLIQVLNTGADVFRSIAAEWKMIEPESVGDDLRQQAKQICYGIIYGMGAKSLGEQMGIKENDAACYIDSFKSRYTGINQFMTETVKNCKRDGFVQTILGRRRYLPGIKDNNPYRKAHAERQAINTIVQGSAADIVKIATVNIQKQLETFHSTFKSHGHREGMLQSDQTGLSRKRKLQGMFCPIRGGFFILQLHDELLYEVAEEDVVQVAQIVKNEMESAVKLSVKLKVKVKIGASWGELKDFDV
SMILES = CCOC(=O)c1c(C)[nH]c(/C=C2\C(=O)Nc3ccccc32)c1C; value = 99.6%
SMILES = Nc1nc(N)c2nc(-c3cccc(O)c3)c(-c3cccc(O)c3)nc2n1; value = 119%
SMILES = C=C1C[C@@]23CC[C@H]4[C@@](C)(CCC[C@@]4(C)C(=O)O)[C@@H]2CC[C@]1(O)C3; value = 98.3%
SMILES = CN(C)[C@@H]1C(O)=C(C(N)=O)C(=O)[C@@]2(O)C(O)=C3C(=O)c4c(O)cccc4[C@@](C)(O)[C@H]3C[C@@H]12; value = 101%

Sample 2 — method: competition with immobilised ligand; tested at: 1 µM; quantity: remaining binding
Compound: O=C(N[C@H]1CCCCC/C=C\C2C[C@@]2(C(=O)O)NC(=O)[C@@H]2C[C@@H](Oc3ccncc3)CN2C1=O)OC1CCCC1 (stereo partly drawn)
target = MYLK3 (Homo sapiens, UniProt Q32MK0); effect on = binding; value = 75%
target = PLK4 (Homo sapiens, UniProt O00444); effect on = binding; value = 88%
target = PIP5K1A (Homo sapiens, UniProt Q99755); effect on = cell-free assay; value = 99%
target = EGFR (Homo sapiens, UniProt P00533, G719C); effect on = cell-free assay; value = 59%
target = Aurora kinase C (AURKC, Homo sapiens, UniProt Q9UQB9); effect on = binding; value = 92%
target = PAK5 (Homo sapiens, UniProt Q9P286); effect on = binding; value = 83%

Sample 3 — effect on: enzyme activity; action: inhibitor; tested at: 0.5 µM; reference: control; quantity: remaining activity
Target: Glycogen synthase kinase-3 alpha (GSK3A, Homo sapiens, UniProt P49840)
Sequence of UniProt P49840 (whole entry, looked up): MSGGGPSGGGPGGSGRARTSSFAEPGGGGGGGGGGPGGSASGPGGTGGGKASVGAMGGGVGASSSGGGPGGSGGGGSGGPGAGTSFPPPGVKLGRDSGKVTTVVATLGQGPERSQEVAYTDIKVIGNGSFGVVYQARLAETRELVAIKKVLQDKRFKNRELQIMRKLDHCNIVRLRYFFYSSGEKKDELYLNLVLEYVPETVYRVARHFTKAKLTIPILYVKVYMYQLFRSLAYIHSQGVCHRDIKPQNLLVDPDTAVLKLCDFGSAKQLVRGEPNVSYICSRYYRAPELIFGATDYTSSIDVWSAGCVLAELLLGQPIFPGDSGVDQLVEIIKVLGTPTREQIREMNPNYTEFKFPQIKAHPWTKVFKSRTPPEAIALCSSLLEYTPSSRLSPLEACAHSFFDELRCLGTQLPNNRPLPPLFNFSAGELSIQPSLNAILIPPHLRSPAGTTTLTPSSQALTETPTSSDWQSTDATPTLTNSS
SMILES = Nc1[nH]nc2nc3ccccc3nc12; value = 91.6%
SMILES = Nc1ncnc2n[nH]c(Nc3ccc(F)cc3)c12; value = 88.6%
SMILES = NCCNc1ncc(C(N)=O)c(Nc2cccc(C(F)(F)F)c2)n1; value = 83%
SMILES = COc1ccc(CNC(=O)Nc2ncc([N+](=O)[O-])s2)cc1; value = 13.5%
SMILES = Nc1ccc2ncnc(NCCc3ccc(Oc4ccccc4)cc3)c2c1; value = 110%
SMILES = Cn1sc(=O)n(Cc2ccccc2)c1=O; value = 94.5%
SMILES = O=C1NC(=O)C(c2cn(CCCO)c3ncccc23)=C1c1cnccn1; value = 8.56%
SMILES = O=C1NC(=O)C(c2cn(CCCn3ccnc3)c3ccccc23)=C1Nc1ccccc1; value = 10.6%
SMILES = N#CC(C#N)=C(N)/C(C#N)=C/c1ccc(O)cc1; value = 91.1%
SMILES = Cc1cccc(-c2[nH]c(C(C)(C)C)nc2-c2ccc3c(c2)OCO3)n1; value = 93%
SMILES = O=C(CCCc1ccc(-c2ccccc2F)cc1)Nc1ccc(O)cc1; value = 98.6%
SMILES = CO[C@H]1C[C@@H]2CC[C@@H](C)[C@@](O)(O2)C(=O)C(=O)N2CCCC[C@H]2C(=O)O[C@H]([C@H](C)C[C@@H]2CC[C@@H](O)[C@H](OC)C2)CC(=O)[C@H](C)/C=C(\C)[C@@H](O)[C@@H](OC)C(=O)[C@H](C)C[C@H](C)/C=C/C=C/C=C/1C; value = 106%
SMILES = OCC(O)CCON=C1C(c2c(O)[nH]c3ccccc23)=Nc2ccccc21 (stereo not drawn); value = 7.31%
SMILES = CN(C)c1ccc(C=C2C(=O)Nc3ccccc32)cc1; value = 104%

Sample 4 — organism: Sarcocystis neurona; effect on: parasite growth; tested at: 10 µM; time: 96 h; notes: second screen; reference: untreated; quantity: log2 fold change
SMILES = CCC(C)n1ncn(-c2ccc(N3CCN(c4ccc(OCC5COC(Cn6cncn6)(c6ccc(Cl)cc6Cl)O5)cc4)CC3)cc2)c1=O (stereo not drawn); value = 0.66
SMILES = CC(C)(C)NCC(O)COc1cccc2c1CC(O)C(O)C2 (stereo not drawn); value = 0.31
SMILES = Nc1ccc(S(=O)(=O)c2ccc(N)cc2)cc1; value = 0.31
SMILES = Oc1ncnc2[nH]ncc12; value = 0.32
SMILES = NNC(=O)c1ccncc1; value = 0.34
SMILES = Nc1nnc(-c2cccc(Cl)c2Cl)c(N)n1; value = 0.41

Excerpt of the above (sample 3):
SMILES = CO[C@H]1C[C@@H]2CC[C@@H](C)[C@@](O)(O2)C(=O)C(=O)N2CCCC[C@H]2C(=O)O[C@H]([C@H](C)C[C@@H]2CC[C@@H](O)[C@H](OC)C2)CC(=O)[C@H](C)/C=C(\C)[C@@H](O)[C@@H](OC)C(=O)[C@H](C)C[C@H](C)/C=C/C=C/C=C/1C; value = 106%
SMILES = OCC(O)CCON=C1C(c2c(O)[nH]c3ccccc23)=Nc2ccccc21 (stereo not drawn); value = 7.31%
SMILES = CN(C)c1ccc(C=C2C(=O)Nc3ccccc32)cc1; value = 104%
